Assay results from different studies.
Every numbered part comes from another study and shows a few of its results, in no order. Positions count from the first letter of the parent shown.

Block 1
Target: Interferon regulatory factor 5, full length, phosphomimetic (IRF5, Homo sapiens, UniProt Q13568-2, residues 1-514, K96S/S451D/S453D/S456D/S462D)
Method: protein-binding microarray
Molecule type: double-stranded DNA, one strand shown
Matrix: in vitro
Concentration: 250 nM
Notes: 60-bp whole probe
With: salmon DNA 0.4 mg/ml
Baseline: random background probes
Direction: higher = stronger binding
Endpoint: log fluorescence
All sequences stand within: GCCTAGCAC … GTCTTGATTCGCTTGACGCTGCTG
TTAGGTATCGGGTTACGGTTAGTGCTA: 4.4 z-score
TTGGTTTTCTCTATTGCTTTGTGCTAG: 1.6 z-score
GACGAGTTCAGTTTCGAGACGTGCTAG: 5.33 z-score
TTAGAACTGAGTCTCGTTTAGTGCTAG: 0.121 z-score
TCACCTCTCTCTATTCAACTGTGCTAG: 0.758 z-score
TTAGAACTGAATTTCGATTAGTGCTAG: 6.39 z-score
TCAGGACTGGGTATCGGTTAGTGCTAG: 4.26 z-score
GACGGTTTCGCTCTCGGGACGTGCTAG: 5.65 z-score

Block 2
Target: CCNA2, cyclin fold, Cln2 fusion (human)
Method: yeast growth competition, sequencing
Matrix: yeast
Notes: strong parent motif
Baseline: not given
Direction: higher = stronger binding
Endpoint: normalised enrichment score
Starting sequence: CDKN1A docking peptide (human); SKACRRLFGPVDS; partner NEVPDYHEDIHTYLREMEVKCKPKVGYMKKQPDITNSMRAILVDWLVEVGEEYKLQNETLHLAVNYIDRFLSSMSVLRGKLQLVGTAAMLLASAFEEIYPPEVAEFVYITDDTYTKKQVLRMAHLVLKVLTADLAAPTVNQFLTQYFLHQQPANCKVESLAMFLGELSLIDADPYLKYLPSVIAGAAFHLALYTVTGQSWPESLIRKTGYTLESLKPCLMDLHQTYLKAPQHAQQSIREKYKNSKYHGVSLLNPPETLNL
SKACERLFGPVDS [R5E]: 0.117
SEACRRLFGPVDS [K2E]: 3.18
SKACRRLFGPWDS [V11W]: 5.8
SKACRRLFGPVFS [D12F]: 4.56
SKACRRLFGQVDS [P10Q]: 5.29
SKACDRLFGPVDS [R5D]: -0.749
SKACRYLFGPVDS [R6Y]: 1.66
SKYCRRLFGPVDS [A3Y]: 2.5

Block 3
Target: ABI1, truncated, D143A, DHFR fusion (Arabidopsis thaliana)
Method: DHFR PCA, deep sequencing
Matrix: yeast
Notes: methotrexate growth selection, single substitutions
With: (+)-ABA 0.0091 µM
Baseline: wild-type fitted maximum
Direction: higher = stronger binding
Endpoint: relative binding score
Starting sequence: PYL1, truncated, DHFR fusion (Arabidopsis thaliana); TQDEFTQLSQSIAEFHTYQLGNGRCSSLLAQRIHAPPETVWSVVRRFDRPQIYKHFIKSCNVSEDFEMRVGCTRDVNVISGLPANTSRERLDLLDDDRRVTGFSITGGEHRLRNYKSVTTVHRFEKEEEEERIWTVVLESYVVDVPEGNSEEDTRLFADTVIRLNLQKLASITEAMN
E109H: 13.8%
G108V: -2.74%
F103L: 0.605%
P50L: -7%

Other studies, line by line
PhoQ, residues 284 288 289 292 302 303 AGCYAI — fold induction (PhoP, residues 12 14 15 18 19 QYCSL (Escherichia coli, UniProt P23836); Sort-seq, refers to: YFP reporter; E. coli; PhoQ-PhoP variant library, with: 10 µM Mg2+; baseline: high Mg2+ state, higher = stronger signaling): 1.55
